Published values gathered from unrelated publications.
Values joined by “and” are separate records of one study, mostly repeats; a detail may differ. ± marks the error that the study gave.

CN[C@H](CC(C)C)C(=O)N[C@H]1C(=O)N[C@@H](CC(N)=O)C(=O)N[C@H]2C(=O)N[C@H]3C(=O)N[C@H](C(=O)N[C@H](C(=O)O)c4cc(O)cc(O)c4-c4cc3ccc4O)[C@H](O)c3ccc(c(Cl)c3)Oc3cc2cc(c3O[C@@H]2O[C@H](CO)[C@@H](O)[C@H](O)[C@H]2O[C@H]2C[C@](C)(N)[C@H](O)[C@H](C)O2)Oc2ccc(cc2Cl)[C@H]1O
half-life (guinea pig, tissue cage fluid; local, 10 mg/mL, poloxamer 407 hydrogel): 5.7 h

Cc1cccc(CNC(=O)c2cn(CCNC(=O)c3ccccc3Sc3c([N+](=O)[O-])ncn3C)c3cc4c(cc3c2=O)OCO4)n1
half-life (blood stability; Beagle dog blood; 1 µM, 37 °C): 3.55 h

O=C(COc1ccc(N2C(=O)[C@@H]3[C@@H]4C=C[C@@H]([C@H]5C[C@@H]45)[C@@H]3C2=O)cc1)c1cc(Cl)cc(Cl)c1
half-life (CD-1 mouse plasma; 2 µM, 37 °C): > 24 h

C=C1CN2CCC[C@@]2(COc2nc(N3CCN(C(=O)/C=C/c4cccc5c4CNCC5)C[C@@H]3C)c3cc(Cl)c(-c4nc(N)cc(C)c4C(F)(F)F)c(F)c3n2)C1
half-life (1 µM, pH 7.4, added: 5 mM cysteine): 6.95 h

COCCOc1cnc2ccn([C@H](C)c3nnc4c(F)cc(-c5cnn(C)c5)cn34)c(=O)c2c1
half-life (patients, plasma; oral, 200 mg once daily, day 1): 7 h

C[C@H](N)C(=O)N[C@@H](C[SeH])C(=O)N1CCC[C@H]1C(=O)N[C@@H](CO)C(=O)N[C@@H](CC(=O)O)C(=O)N[C@@H](Cc1ccc(O)cc1)C(=O)N[C@@H](C[SeH])C(=O)N[C@@H](CCCCN)C(=O)N[C@@H](CCCNC(=N)N)C(=O)N[C@@H](CCCCN)C(=O)NCC(=O)N[C@@H](C[SeH])C(=O)NCC(N)=O
half-life (pH 7.5, 4 °C, added: EDTA 100 equiv): 96 ± 12 h

CC(C)[N+](C)(CCOC(=O)C1c2ccccc2Oc2ccccc21)C(C)C
half-life (human whole blood; 5 µM): 0.534 h

N#Cc1ccc(Nc2nc(N)cc(Oc3c(F)cc(-c4ccc(C#N)cc4)cc3F)n2)cc1
half-life (human plasma, diluted in PBS; 1 µM): 23.8 h

Oc1ccc([C@@H](O)c2cc(-c3ncnc4cc(N5CCOCC5)ccc34)c(F)cc2Cl)nn1
half-life (geometric mean; healthy volunteers, plasma; oral, 100 mg, high-fat fed tablet): 3.44 h

COc1ccc2[nH]c([S+]([O-])Cc3ncc(C)c(OC)c3C)nc2c1 (centres unmarked)
half-life (healthy Chinese volunteers, plasma; oral, 20 mg, fasted, all CYP2C19 genotypes): 1.08 ± 0.57 h

COC(=O)[C@H](N)CSN=O
half-life (PBS; 10 µM, pH 3.25, room temperature, dark): 1.6 ± 0.198 h

C[C@@H](NC(=O)N1C(=O)[C@H](Cc2ccnc(N)c2)[C@H]1C(=O)O)C1CCCCC1
half-life (healthy adult Chinese volunteers, plasma; continuous intravenous infusion, 1.0 mg/kg/h, day 6): 1.27 h

CCCCC[C@H](O)CC[C@@H]1[C@H]2Cc3cccc(OCC(=O)O)c3C[C@H]2C[C@H]1O
half-life (LC-MS/MS; Japanese PAH patients, no background therapy, plasma; inhaled, 54 µg, geometric mean): 0.94 h

CC(C)c1nc(N(C)S(C)(=O)=O)nc(-c2ccc(F)cc2)c1/C=C/[C@@H](O)C[C@@H](O)CC(=O)O
half-life (healthy volunteers, plasma; oral, 10 mg single dose, day 1, given alone, BCRP probe): 18.8 h

COc1cccc2c1OCC(C(=O)Nc1ccc3c(c1)CN(C1CCC(=O)NC1=O)C3=O)=C2 (centres unmarked)
half-life (metabolic stability; liver microsomes; 2 µM): > 6 h

O=C1NC(=O)c2cc(Nc3ccccc3)c(Nc3ccccc3)cc21
half-life (substrate depletion; phenobarbital/β-naphthoflavone-induced rat liver microsomes; 1 µM, pH 7.4, 37 °C, added: NADPH): 0.0185 h

CCCCCN(C)CCC(O)(P(=O)(O)O)P(=O)(O)OP(=O)(O)OC[C@H]1O[C@@H](n2ccc(N)nc2=O)C(F)(F)[C@@H]1O (some centres unmarked)
half-life (hydrolysis; HEPES buffer; pH 7.4, 37 °C): 7.7 h

O=c1c2cc(Cl)ccc2[nH]c(=S)n1Cc1cccnc1
half-life (plasma stability; mouse plasma): > 6.22 h

NC(CCC(c1ccccc1)(c1ccccc1)c1ccccc1)C(=O)O (racemic)
half-life (pH 1): stable

Cc1ccc2c(c1)C(=O)[C@]1(O)CCN(c3ccc4nc(C)ccc4c3)C1=N2.Cl
half-life (plasma; intravenous, 2 mg/kg): 10.3 h

CCC1=C(CC)/C(=C/N[C@H]2CC[C@H](C)CC2)N=C1c1ccc[nH]1
half-life (mouse liver microsomes; 1 µM, pH 7.4): 0.625 h

Cc1ccc(NC(=O)c2ccc(CN3CCN(C)CC3)cc2)cc1Nc1nccc(-c2cncc(-c3oncc3C)c2)n1
half-life (Parkinson's disease patients, plasma; oral, 50 mg/day, 7 days, steady state): 24.8 ± 3.7 h

C[C@H](NC(=O)[C@H](C)NC(=O)[C@H](CCCNC(=N)N)NC(=O)[C@@H]1CCCN1C(=O)[C@H](CCCNC(=N)N)NC(=O)CNC(=O)c1ccc2c(c1)C(=O)OC21c2ccc(O)cc2Oc2cc(O)ccc21)C(=O)N[C@H](C(=O)N[C@@H](Cc1ccccc1)C(=O)N[C@@H](C)C(=O)N[C@@H](CCC(=O)O)C(=O)NCC(N)=O)[C@@H](C)O
half-life (CE-LIF; HeLa cytosolic lysate; 37 °C): 0.25 ± 0.0167 h

C[C@@H](N)C1CCN(S(=O)(=O)c2cccc3cnccc23)CC1
half-life (healthy volunteers, plasma; oral, 150 mg, fed, single dose): 2.05 h

CC(=O)O[C@H]1C(=O)[C@@]2(C)[C@H]([C@H](OC(=O)c3ccccc3)[C@]3(O)C[C@H](OC(=O)[C@H](OC(=O)OCc4cc(C(=O)O)ccc4OP(=O)(O)O)[C@@H](NC(=O)c4ccccc4)c4ccccc4)C(C)=C1C3(C)C)[C@]1(OC(C)=O)CO[C@@H]1C[C@@H]2O
half-life (simulated gastric fluid; 10 µM, 2 h incubation, pH 1.2): > 2 h

O=C1Nc2c(C(F)(F)F)cccc2[C@@]1(c1ccc(O)cc1)N1CC(F)(F)C(F)(F)C1
half-life (simulated gastric fluid with pepsin; 100 µM, pH 1.2, 37 °C): 0.167 to 1.28 h

OCc1nc2ccc(NCc3ccc(C(F)(F)F)cc3)cc2[nH]1
half-life (human liver S9; 1 µM, pH 7.4): 3.22 h and 3.21 h

CCCCCCCCCCCCCCCC(=O)N[C@@H](CCC(=O)NCCCC[C@@H]1NC(=O)[C@H]([C@@H](C)CC)NC(=O)[C@@H](NC(=O)[C@@H]2CCCN2C(=O)[C@H](Cc2ccccc2)NC(=O)[C@H](Cc2c[nH]cn2)NC(=O)[C@@H](NC(=O)[C@H](CC(=O)O)NC(=O)CC(C)C)[C@@H](C)O)CSSC[C@@H](C(=O)N[C@@H](CCCCN)C(N)=O)NC(=O)CNC(=O)[C@H](CCCCN)NC(=O)[C@H](CO)NC(=O)[C@H](CCCNC(=N)N)NC(=O)[C@@H]2CCCN2C(=O)[C@H](CCC(=O)O)NC(=O)[C@H](Cc2ccccc2)NC1=O)C(=O)O
half-life (healthy volunteers, plasma; subcutaneous, 10 mg single, lyophilised formulation): 19.6 ± 5.22 h

CC1=NN(/C(=N/c2nnc(C)s2)Nc2ccc(C)c(C)c2)C(c2cc(F)c(F)c(F)c2)S1 (centres unmarked)
half-life (plasma stability; mouse plasma): 0.418 h

C[C@H](NC(=O)/C(C#N)=C/c1cccc(Br)n1)c1ccccc1
half-life (LC-MS/MS; patients, plasma; oral, 4 mg/kg, cycle 1 day 1): 7.1 h

C[C@H]1CN(C(=O)CC#N)[C@]12CCN(c1ncnc3[nH]ccc13)C2
half-life (healthy Japanese males, plasma; oral, 50 mg single dose): 4 h

N[C@@H](CC(=O)O)C(=O)OC(C(=O)O)c1ccccc1[N+](=O)[O-].O=C(O)C(F)(F)F (mixture of isomers)
half-life (hydrolysis, 1H NMR; aqueous citrate-ammonium sulfate, 12.5% DMSO-d6; pH 4.2, room temperature, dark, isomer A): 16.9 ± 0.4 h

OCc1ccc(-c2nn(Cc3ccccc3)c3ccccc23)o1
half-life (human liver microsomes; added: NADPH and UDPGA): < 0.0833 h

O=c1c(-c2ccc(O)cc2)coc2cc(O)ccc12
half-life (substrate depletion; phenobarbital/β-naphthoflavone-induced rat liver microsomes; 1 µM, pH 7.4, 37 °C, added: NADPH): 0.0975 h

Ic1nccs1
half-life (PBS with 5% acetonitrile; 250 µM, pH 7.4, no glutathione): 54.8 h

For quick reference, copied from above:
O=C1Nc2c(C(F)(F)F)cccc2[C@@]1(c1ccc(O)cc1)N1CC(F)(F)C(F)(F)C1
half-life (simulated gastric fluid with pepsin; 100 µM, pH 1.2, 37 °C): 0.167 to 1.28 h

OCc1nc2ccc(NCc3ccc(C(F)(F)F)cc3)cc2[nH]1
half-life (human liver S9; 1 µM, pH 7.4): 3.22 h and 3.21 h

CCCCCCCCCCCCCCCC(=O)N[C@@H](CCC(=O)NCCCC[C@@H]1NC(=O)[C@H]([C@@H](C)CC)NC(=O)[C@@H](NC(=O)[C@@H]2CCCN2C(=O)[C@H](Cc2ccccc2)NC(=O)[C@H](Cc2c[nH]cn2)NC(=O)[C@@H](NC(=O)[C@H](CC(=O)O)NC(=O)CC(C)C)[C@@H](C)O)CSSC[C@@H](C(=O)N[C@@H](CCCCN)C(N)=O)NC(=O)CNC(=O)[C@H](CCCCN)NC(=O)[C@H](CO)NC(=O)[C@H](CCCNC(=N)N)NC(=O)[C@@H]2CCCN2C(=O)[C@H](CCC(=O)O)NC(=O)[C@H](Cc2ccccc2)NC1=O)C(=O)O
half-life (healthy volunteers, plasma; subcutaneous, 10 mg single, lyophilised formulation): 19.6 ± 5.22 h

CC1=NN(/C(=N/c2nnc(C)s2)Nc2ccc(C)c(C)c2)C(c2cc(F)c(F)c(F)c2)S1 (centres unmarked)
half-life (plasma stability; mouse plasma): 0.418 h
